Measurements gathered from unrelated publications.
Compare with care: the assays were run in different laboratories. Values joined by “and” are separate records of one study, mostly repeats; a detail may differ. ± gives the spread as reported.
uncharacterized protein: uncharacterized protein (Spodoptera exigua, UniProt F1CEY0)
PTPN1: Tyrosine-protein phosphatase non-receptor type 1 (PTPN1, Homo sapiens, UniProt P18031)
Grin1 S688A with GluN2C: Glutamate receptor ionotropic, NMDA 1, with GluN2C (Grin1, Rattus norvegicus, UniProt P35439, S688A)
ALB: Albumin (ALB, Homo sapiens, UniProt P02768)

`NCCCC(=O)O`: “normalised MST signal” -0.0714 (SLC6A6 (Homo sapiens, UniProt P31641, L306A); binding, microscale thermophoresis; 244 nM, room temperature, added: 50 nM labelled protein; higher = more binding).
Under “log2 fold change”, `c1coc(-c2n[nH]cc2-c2ccnc3ccccc23)c1` is recorded as -0.25 (Aurora kinase (IPL1, Candida albicans, UniProt Q59S66); kinase binding, MIB/MS competition; Candida albicans lysate; 10 µM; reference: DMSO, negative = stronger binding).
Under “chemical shift change”, `CC(=O)Nc1ccc(O)cc1` is recorded as -0.018 ppm (BRD4 (Homo sapiens, UniProt O60885); 19F NMR, measured: tyrosine 65; 375 µM; reference: free protein).
For `O=c1nc(SCc2cc(F)cc(C(F)(F)F)c2)nc(SCc2ccc3nc(Cl)ccc3c2)[nH]1`, the relaxed DNA was 0% (TOP2A (Homo sapiens, UniProt P11388); DNA relaxation; 62.5 µM, replicate 2).
Under “probe labelling inhibition”, `Cc1cc(-c2ccnc3[nH]cc(F)c23)cc(F)c1[C@@]1(O)[C@H](C)CN(C(=O)CN)C[C@@H]1C` is recorded as -0.1% (JAK1 (Homo sapiens, UniProt P23458); ATP/ADP probe binding, KiNativ; HEK293T lysate; 0.1 µM, Lys1 peptide domain 2).
With `CCCCCCCCCCCO` the relative fluorescence was 34.2% (uncharacterized protein; binding, competitor, fluorescence displacement; 20 µM, pH 7.4, added: 1-NPN 20 µM; reference: 1-NPN alone).
`COC(=O)c1cc(C(C)=NNc2nc(-c3ccc4c(c3)OCCCO4)cs2)ccc1O` has a Vmax of 6250 ΔRFU/min (PTPN1; enzyme activity, inhibitor; 1.5 µM).
With `N[C@H](CNC(=O)c1cc(Br)c(-c2ccccc2F)s1)C(=O)O` the potency ratio was 8.5 fold (Grin1 S688A with GluN2C; reference: mutant over wild type).
Under “Gibbs free energy”, `COc1cc(-c2[o+]c3cc(O)cc(O)c3cc2O[C@@H]2O[C@H](CO)[C@@H](O)[C@H](O)[C@H]2O)cc(O)c1O` is recorded as -5.96 kcal/mol (ALB; binding, fluorescence quenching; 40 °C).
The kcat of `Nc1ncnc2c1ncn2[C@@H]1O[C@H](COP(=O)(O)OP(=O)(O)OP(=O)(O)O)[C@@H](O)[C@H]1O` is reported as 6 ± 2 s⁻¹ (CKMT1A (Homo sapiens, UniProt P12532, H99A); substrate, ADP-Glo luminescence; pH 8.5, forward reaction, H61A mutant, added: second substrate in excess).
With `CCOCc1nc(O)c(-c2nnc(Cc3ccc(Cl)cn3)o2)c(O)c1-c1c(OC)cccc1OC` the Emax was 101 ± 5% (Apelin receptor (APLNR, Homo sapiens, UniProt P35414); β-arrestin1 activation, agonist, BRET biosensor; HEK293).
`Cc1n[nH]c2ccc(-c3cc(OC[C@@H](N)Cc4ccccc4)cnc3-c3ccoc3)cc12` — result for “log2 fold change”: -0.272 (Carbon catabolite-derepressing protein kinase (SNF1, Candida albicans, UniProt P52497); kinase binding, competitor, MIB/MS competition, measured: SNF1; Candida albicans cell lysate; 100 nM; reference: DMSO).
`COc1cc(-c2cncc3c2CN(C)Cc2cc(N4CCNCC4)ccc2-3)cc(OC)c1OC` gave a remaining activity of 109% (SBK1 (Homo sapiens, UniProt Q52WX2); kinase activity; 1 µM, human enzyme, added: ATP 10 µM; reference: DMSO control).
For `COC(=O)c1cn(C)c2ccc(-c3cccnc3)cc12`, the activation was 0.95 fold (RXRA (Homo sapiens, UniProt P19793); reporter gene, Gal4 hybrid reporter; 10 µM; reference: vehicle).
`O=C(COP(=O)(O)O)[C@@H](O)[C@H](O)[C@H](O)COP(=O)(O)O` gave a melting temperature of 69 ± 0.2 °C (Fructose-1,6-bisphosphatase 1 (Mus musculus, UniProt Q9QXD6, G27P); thermal shift; 0.1 mM, G27P mutant, added: AMP 0.2 mM).
`CC1CC(c2ccccc2)n2nc(N3C(=O)C4CC=CCC4C3=O)nc2N1` (stereo not shown) gave a ligand efficiency of 0.29 (ADORA2A (Homo sapiens, UniProt P29274); radioligand displacement; added: [3H]ZM241385).
`Nc1nc2c(ncn2[C@@H]2O[C@H](COP(=O)(O)O)[C@@H](O)[C@H]2O)c(=O)[nH]1` gave a -TΔS of 9.08 kcal/mol and 8.63 kcal/mol and 10 kcal/mol (GUK1, part: ATPγS-bound (Homo sapiens, UniProt Q16774); binding, ITC; added: ATPγS 0.5 mM).
For `O=c1cc(CO)occ1[O-].[Cl-].[W+4].c1cc[cH-]c1.c1cc[cH-]c1`, the entropy change was 60.3 J/(mol K) (ALB; binding, van't Hoff fluorescence quenching; concentration not given).
`COc1ccc(-c2cc(OCC(=O)N(C)Cc3cccnc3C)nc(-n3nc(C)cc3C)n2)cc1` — result for “trimming of SIINFEKL precursors”: “no effect” (LNPEP (Homo sapiens, UniProt Q9UIQ6); peptide trimming, inhibitor, HPLC; up to 50 µM, 1 h, 37 °C, added: 40 µM peptide, 20 nM IRAP).
For `Nc1ncnc2c1ncn2[C@@H]1O[C@H](COP(=O)(O)CP(=O)(O)OP(=O)(O)O)[C@@H](O)[C@H]1O`, the specific binding was 245 CCPM and 236 CCPM (P2X purinoceptor 1 (P2RX1, Homo sapiens, UniProt P51575, R139P); saturation binding; HEK293; 13 nM).
For `O=C(Nc1cnccc1Cl)N1CCN(Cc2ccc3c(c2)OC(F)(F)O3)CC1`, the potency ratio was 4 to 6 (FAAH (Homo sapiens, UniProt O00519); enzyme activity, inhibitor; COS cells expressing human FAAH; 1 h; reference: whole cells over membrane preparation).
For `CNCCN1CCN(c2cnc3c(cc(C(=O)NCc4ccc(Cl)cc4)c(=O)n3CC(=O)N3CC(C)(F)C3)n2)C1=O.Cl`, the Hill slope was 0.87 (DNA polymerase catalytic subunit (Human cytomegalovirus, UniProt P08546); enzyme activity, inhibitor).
The activation of `CN1CCN(c2cc(-c3ccncc3)c(-c3ccc4ccccc4c3)nn2)CC1` is reported as -0.8% (AGTR1 (Homo sapiens, UniProt P30556); agonist, FLIPR; 12.5 µM).
For `CC1(C)[C@H]2CC=C(CO)[C@@H]1C2`, the relative fluorescence was 71.2% (uncharacterized protein; binding, 1-NPN competitive displacement; protein 2.0 µM, added: 1-NPN 20 µM; reference: 1-NPN without compound, lower = stronger binding).
For `N[C@H](CNC(=O)c1ccc(-c2ccccc2Br)s1)C(=O)O`, the Hill slope was 1.54 (Grin1 S688A with GluN2C; rat; added: glutamate 300 µM).
`CC[C@H](C)[C@@H]1NC(=O)[C@H](Cc2ccc(-c3ccccc3)cc2)NC(=O)[C@H](CC2CCC2)NC(=O)[C@@H]2[C@@H](c3ccccc3)CCN2C(=O)[C@@H](NC(=O)[C@H](CCCNC(=N)N)NC(=O)[C@H](CCCNC(=N)N)NC(C)=O)CSSC[C@@H](C(=O)N[C@@H](CCCNC(=N)N)C(=O)N[C@@H](CCCNC(=N)N)C(N)=O)NC(=O)[C@H](C(C)C)NC(=O)[C@@H]2CCCN2C(=O)[C@H](CC(=O)O)NC(=O)[C@H](Cc2ccc(O)cc2)NC(=O)[C@H](CO)NC1=O`: “lowest bound protein concentration” 0.31 µM (GTPase KRas, GDP-bound (KRAS, Homo sapiens, UniProt P01116, G12D); affinity selection mass spectrometry; mixture library 3, added: protein titration up to 2.5 µM; lower is stronger binding).
The selectivity ratio of `N[C@@H](Cc1ccc(C(F)(F)P(=O)(O)O)cc1)C(=O)O` is reported as 23 fold (PTPN1; inhibitor, pNPP hydrolysis; reference: IC50 PTP-MEG2 over IC50 PTPN1).
With `COc1cc(Nc2ncc3c(n2)-c2ccc(Cl)cc2C(c2c(F)cccc2OC)=NC3)ccc1C(=O)O` the remaining activity was 106% (MATK; kinase activity; 1 µM).
For `CCN(CCO)CCCC(C)Nc1ccnc2cc(Cl)ccc12` (stereo not shown), “half-inactivation voltage (V1/2)” read -97.2 mV and -82.4 mV and -92 mV (SCN5A (Homo sapiens, UniProt Q14524); sodium current, whole-cell patch clamp; 300 µM, without ATX-II).
`CC[C@@H]1[C@H](F)C(=O)N[C@@H]1COc1nccc2cc(C(N)=O)c(OC)cc12` has an inhibition of -12.3% (EPHA2 (Homo sapiens, UniProt P29317); ATP probe binding, KiNativ profiling, measured: activation loop probe site; THP-1 cell lysate; 0.01 mM).
`CCN1CCC[C@H]1CNC(=O)c1c(O)c(Cl)cc(Cl)c1OC` — result for “log2 fold change”: 0.159 (TAAR1 (Homo sapiens, UniProt Q96RJ0); β-arrestin recruitment, TANGO luminescence, measured: TA1; concentration not given; reference: basal luminescence).
